Results collected from several papers.
Lines come from different studies, so protocols differ. ± gives the spread as reported.
Sequence of UniProt P0A8T7 (whole entry, looked up): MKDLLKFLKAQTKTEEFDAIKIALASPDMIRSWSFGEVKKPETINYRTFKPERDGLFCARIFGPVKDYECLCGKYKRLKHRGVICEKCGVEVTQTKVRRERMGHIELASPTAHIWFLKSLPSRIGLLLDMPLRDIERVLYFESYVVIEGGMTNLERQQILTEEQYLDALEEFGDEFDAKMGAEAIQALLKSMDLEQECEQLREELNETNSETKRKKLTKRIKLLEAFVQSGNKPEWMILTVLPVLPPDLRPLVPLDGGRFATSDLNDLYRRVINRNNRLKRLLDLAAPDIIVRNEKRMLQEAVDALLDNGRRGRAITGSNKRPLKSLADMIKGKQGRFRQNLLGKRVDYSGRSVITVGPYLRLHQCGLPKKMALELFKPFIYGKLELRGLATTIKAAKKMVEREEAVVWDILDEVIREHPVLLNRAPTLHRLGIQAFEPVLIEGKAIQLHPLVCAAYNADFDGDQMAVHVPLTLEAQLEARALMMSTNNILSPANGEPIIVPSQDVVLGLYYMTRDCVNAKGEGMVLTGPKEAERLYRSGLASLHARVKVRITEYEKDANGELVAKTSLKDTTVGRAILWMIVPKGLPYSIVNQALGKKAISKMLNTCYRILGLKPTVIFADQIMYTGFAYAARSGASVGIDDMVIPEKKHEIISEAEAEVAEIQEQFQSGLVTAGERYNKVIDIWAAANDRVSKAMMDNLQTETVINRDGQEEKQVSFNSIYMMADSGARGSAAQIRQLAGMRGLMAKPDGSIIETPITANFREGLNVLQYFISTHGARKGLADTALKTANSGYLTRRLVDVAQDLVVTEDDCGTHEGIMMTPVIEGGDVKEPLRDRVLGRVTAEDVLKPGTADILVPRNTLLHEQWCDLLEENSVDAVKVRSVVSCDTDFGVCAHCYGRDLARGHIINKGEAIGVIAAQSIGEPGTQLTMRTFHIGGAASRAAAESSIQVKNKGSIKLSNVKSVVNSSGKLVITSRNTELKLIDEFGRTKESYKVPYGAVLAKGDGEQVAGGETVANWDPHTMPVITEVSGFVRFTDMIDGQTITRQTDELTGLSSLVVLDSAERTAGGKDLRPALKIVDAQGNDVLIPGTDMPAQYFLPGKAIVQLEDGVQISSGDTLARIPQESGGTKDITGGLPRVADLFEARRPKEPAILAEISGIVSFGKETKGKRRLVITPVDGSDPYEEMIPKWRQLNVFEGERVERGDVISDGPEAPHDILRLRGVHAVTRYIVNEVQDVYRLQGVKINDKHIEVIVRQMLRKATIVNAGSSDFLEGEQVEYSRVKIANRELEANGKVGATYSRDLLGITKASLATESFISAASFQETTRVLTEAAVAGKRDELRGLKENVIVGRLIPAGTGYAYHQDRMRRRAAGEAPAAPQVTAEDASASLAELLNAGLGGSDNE
Sequence of UniProt P0A8V2 (whole entry, looked up): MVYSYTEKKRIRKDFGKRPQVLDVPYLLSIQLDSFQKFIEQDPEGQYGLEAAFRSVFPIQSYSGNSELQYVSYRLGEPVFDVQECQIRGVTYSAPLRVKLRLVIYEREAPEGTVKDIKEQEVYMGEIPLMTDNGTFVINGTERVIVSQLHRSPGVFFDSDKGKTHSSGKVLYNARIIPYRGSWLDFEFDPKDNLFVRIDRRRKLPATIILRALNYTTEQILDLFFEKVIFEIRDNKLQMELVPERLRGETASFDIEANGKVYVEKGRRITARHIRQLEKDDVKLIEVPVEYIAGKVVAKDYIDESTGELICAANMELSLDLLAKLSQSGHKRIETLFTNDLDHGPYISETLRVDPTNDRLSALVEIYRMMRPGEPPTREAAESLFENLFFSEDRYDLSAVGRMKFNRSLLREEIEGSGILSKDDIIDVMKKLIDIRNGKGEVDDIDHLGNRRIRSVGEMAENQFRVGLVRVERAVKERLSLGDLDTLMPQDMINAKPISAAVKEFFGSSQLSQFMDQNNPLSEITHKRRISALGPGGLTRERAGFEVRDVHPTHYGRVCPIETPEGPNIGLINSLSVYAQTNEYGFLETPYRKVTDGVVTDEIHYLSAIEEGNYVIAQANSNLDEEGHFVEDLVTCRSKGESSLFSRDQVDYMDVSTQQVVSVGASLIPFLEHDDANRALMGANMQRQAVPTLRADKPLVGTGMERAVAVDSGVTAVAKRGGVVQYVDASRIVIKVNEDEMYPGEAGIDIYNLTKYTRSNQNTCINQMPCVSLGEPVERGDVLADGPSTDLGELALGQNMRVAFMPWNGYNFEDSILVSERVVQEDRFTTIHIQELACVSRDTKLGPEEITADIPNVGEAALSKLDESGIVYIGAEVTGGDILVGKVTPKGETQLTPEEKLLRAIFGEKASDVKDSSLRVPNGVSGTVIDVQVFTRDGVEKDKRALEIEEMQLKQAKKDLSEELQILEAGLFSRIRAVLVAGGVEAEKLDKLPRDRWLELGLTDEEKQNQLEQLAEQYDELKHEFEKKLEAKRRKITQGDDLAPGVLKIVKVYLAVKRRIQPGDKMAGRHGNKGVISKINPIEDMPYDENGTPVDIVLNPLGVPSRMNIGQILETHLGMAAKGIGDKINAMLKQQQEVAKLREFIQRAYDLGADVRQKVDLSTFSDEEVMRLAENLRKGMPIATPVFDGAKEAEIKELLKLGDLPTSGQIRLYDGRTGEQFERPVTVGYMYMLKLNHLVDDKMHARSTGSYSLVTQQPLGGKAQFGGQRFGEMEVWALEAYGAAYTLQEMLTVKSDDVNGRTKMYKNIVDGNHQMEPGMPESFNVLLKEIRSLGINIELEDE

Structure (SMILES)	target or system	assay	system	setting	how to read	quantity	value
CC[C@H](C)[C@H](NC(=O)[C@H](CC(C)C)NC(=O)[C@H](Cc1c[nH]c2ccccc12)NC(=O)[C@H](CCC(N)=O)NC(=O)[C@@H](NC(=O)[C@H](Cc1ccccc1)NC(=O)[C@H](C)NC(=O)[C@H](CCCCNC(=O)COCCOCCNC(=O)COCCOCCNC(=O)CC[C@H](NC(=O)CCCCCCCCCCCCCCCCCCC(=O)O)C(=O)O)NC(=O)[C@H](CCC(N)=O)NC(=O)[C@H](C)NC(=O)[C@@H](NC(=O)[C@H](CCCCN)NC(=O)[C@H](CC(=O)O)NC(=O)[C@H](CC(C)C)NC(=O)C(C)(C)NC(=O)[C@@H](NC(=O)[C@H](CO)NC(=O)[C@H](Cc1ccc(O)cc1)NC(=O)[C@H](CC(=O)O)NC(=O)[C@H](CO)NC(=O)[C@@H](NC(=O)[C@H](Cc1ccccc1)NC(=O)[C@@H](NC(=O)CNC(=O)[C@H](CCC(=O)O)NC(=O)C(C)(C)NC(=O)[C@@H](N)Cc1ccc(O)cc1)[C@@H](C)O)[C@@H](C)O)[C@@H](C)CC)[C@@H](C)CC)C(C)C)C(=O)N[C@@H](C)C(=O)NCC(=O)NCC(=O)N1CCC[C@H]1C(=O)N[C@@H](CO)C(=O)N[C@@H](CO)C(=O)NCC(=O)N[C@@H](C)C(=O)N1CCC[C@H]1C(=O)N1CCC[C@H]1C(=O)N1CCC[C@H]1C(=O)N[C@@H](CO)C(N)=O	–	–	healthy subjects, single ascending dose	5.0 mg, titre increase ≥4-fold	–	treatment-boosted ADA positive subjects	0%
Nc1ncnc2c([C@@H]3N[C@H](CO)[C@@H](O)[C@H]3O)c[nH]c12	Zaire ebolavirus	viral replication	HeLa, Kikwit	1.6 µM	–	inhibition	0%
Cc1ccccc1Nc1nc(-c2ccccn2)cs1	Mycobacterium tuberculosis	microbial growth, broth dilution	H37RV	–	–	MIC	3.1 to 6.3 µM
O=C(Nc1ncc(Cc2ccccc2)s1)C(F)(F)F	Histoplasma capsulatum	microbial growth	–	–	–	MIC	> 20 µM
Oc1c(Cl)cc(Cl)cc1-c1[nH]c(Cl)c(Cl)c1Cl	Yersinia pseudotuberculosis	–	ATCC 6904	–	–	MIC	16 µM
CNC(=O)[C@@H](NC(=O)[C@H](CC(C)C)[C@H](O)C(=O)NO)C(C)(C)C	human fibrinogen	SDS-PAGE	Daboia russelii	concentration not given, unit not given, together with: AP venom	relative to: untreated fibrinogen	remaining fibrinogen Bβ chain	0.73
O=C(O)c1cn(C2CC2)c2cc(N3CCNCC3)c(F)cc2c1=O	Brucella anthropi	–	ATCC 49687	–	–	MIC	1 µM
CCCCCC/C=C\CCCCCCCCCC(=O)CP(=O)(O)O	Bacillus anthracis	microbial growth	STERNE34F2	–	–	MIC	0.05 µg/mL
Cc1cccc(Nc2nc(-c3ccccn3)cs2)c1	Mycobacterium tuberculosis	microbial growth, broth dilution	H37RV	–	–	MIC	6.3 to 12.5 µM
CCCN(CCC)CCNC(=O)c1cc(-c2ccc(Br)s2)nc2ccccc12	SARS-CoV-2	cytopathic effect, cell-based CPE	USA_WA1/2020	–	–	AC50	11.2 µM
CCCCCCCC(=O)Nc1nc(-c2ccccn2)cs1	Mycobacterium tuberculosis	microbial growth, broth dilution	H37RV	–	–	MIC	0.78 to 1.6 µM
O=C(Nc1ncc(Cc2ccccc2)s1)c1cnc(-c2cccs2)s1	Histoplasma capsulatum	microbial growth	–	–	–	MIC	> 20 µM
CCCCCCCNC(=O)CP(=O)(O)O	Bacillus anthracis	–	Sterne 34F2	–	–	MIC	100 µg/mL
O=C(Nc1ncc(Cc2ccccc2)s1)c1ccccc1	Histoplasma capsulatum	microbial growth	–	–	–	MIC	> 20 µM
CN1CCCC2(C1)CN(Cc1cccnc1)c1ccc(C(=O)NCC3CCCCC3)cc12 (centres unmarked)	SARS-CoV-2	cytopathic effect, cell-based CPE	USA_WA1/2020	–	–	AC50	25.1 µM
O=C(Nc1ncc(Cc2cccc3ccccc23)s1)C12CC3CC(CC(C3)C1)C2	Histoplasma capsulatum	microbial growth	–	–	–	MIC	> 20 µM
CCCCCCCC/C=C\CCCCCCCC(=O)NS(=O)(=O)NCCC	Bacillus anthracis	–	Sterne 34F2	–	–	MIC	> 200 µg/mL
Cc1ncc([N+](=O)[O-])n1CCO	Clostridium perfringens	–	–	–	–	MIC	0.5 to 2 µg/mL
CC(=O)O[C@@H]1[C@H](N)[C@@H](OP(=O)(O)O)[C@@]2(C(=O)O)CS[C@@](O)(C(N)=O)[C@@H]1O2	DNA-directed RNA polymerase subunit beta' / DNA-directed RNA polymerase subunit beta (rpoC/rpoB, Escherichia coli, UniProt P0A8T7+P0A8V2)	binding to elongation complex, 6-MI fluorescence titration	wild-type RNAP	3′-deoxy RNA 3′-end Adenine	–	Kd	0.84 ± 0.38 µM
CC(C)(C)OC(=O)Nc1ncc(C(O)c2ccccc2)s1 (centres unmarked)	Histoplasma capsulatum	microbial growth	–	–	–	MIC	> 20 µM
O=C(Nc1nc(-c2ccccn2)c[nH]1)c1ccccc1	Mycobacterium tuberculosis	microbial growth, broth dilution	H37RV	–	–	MIC	3.13 to 6.25 µM
O=[N+]([O-])c1ccc(C2=[N+]([O-])c3ccccc3N3CCN=C23)cc1	Clostridium perfringens	–	–	–	–	MIC	0.06 to 0.25 µg/mL
O=C(Nc1nc(-c2ccccn2)cs1)c1cc(F)ccc1F	Mycobacterium tuberculosis	microbial growth, broth dilution	H37RV	–	–	MIC	0.098 to 0.19 µM
O=C(CCCCCCCCCCOc1ccccc1)NP(=O)(O)O	Bacillus anthracis	microbial growth	STERNE34F2	–	–	MIC	> 200 µg/mL
Cn1cnc(Cn2c(=O)[nH]/c(=N\c3cc4cn(C)nc4cc3Cl)n(Cc3cc(F)c(F)cc3F)c2=O)n1	–	item: adverse events	human, renal impairment and normal	oral, 375 mg single	–	tolerability	not toxic
O=C(Nc1cc(-c2ccccn2)cs1)c1ccccc1	Mycobacterium tuberculosis	microbial growth, broth dilution	H37RV	–	–	MIC	12.5 to 25 µM
CCCCCCCC/C=C\CCCCCCCC(=O)C(F)(F)P(=O)(O)O	Bacillus anthracis	microbial growth	STERNE34F2	–	–	MIC	25 µg/mL
O=C(CCC1CCCCC1)Nc1ncc(CCc2ccccc2)s1	Histoplasma capsulatum	microbial growth	–	–	–	MIC	2.5 µM
CC(=O)c1cccc(C(=O)Nc2nc(-c3ccccn3)cs2)c1	Mycobacterium tuberculosis	microbial growth, broth dilution	H37RV	–	–	MIC	0.098 to 0.19 µM

For quick reference, copied from above:
Structure (SMILES)	target or system	assay	system	setting	how to read	quantity	value
O=C(O)c1cn(C2CC2)c2cc(N3CCNCC3)c(F)cc2c1=O	Brucella anthropi	–	ATCC 49687	–	–	MIC	1 µM
O=C(Nc1ncc(Cc2ccccc2)s1)c1cnc(-c2cccs2)s1	Histoplasma capsulatum	microbial growth	–	–	–	MIC	> 20 µM
Oc1c(Cl)cc(Cl)cc1-c1[nH]c(Cl)c(Cl)c1Cl	Yersinia pseudotuberculosis	–	ATCC 6904	–	–	MIC	16 µM
O=C(Nc1ncc(Cc2ccccc2)s1)C(F)(F)F	Histoplasma capsulatum	microbial growth	–	–	–	MIC	> 20 µM
Nc1ncnc2c([C@@H]3N[C@H](CO)[C@@H](O)[C@H]3O)c[nH]c12	Zaire ebolavirus	viral replication	HeLa, Kikwit	1.6 µM	–	inhibition	0%
